{"data": "Experimental data collected from several papers", "note": "A part holds a random share of what one study measured."}
{"data": "Block 1", "target": "Interferon regulatory factor 3, full length, phosphomimetic (IRF3, Homo sapiens, UniProt Q14653, residues 1-427, S386D/S396D/S398D/S402D/T404D/S405D)", "technique": "protein-binding microarray", "molecule type": "double-stranded DNA, one strand shown", "sample": "in vitro", "tested at": "2540 nM top", "notes": "60-bp whole probe", "together with": "salmon DNA 0.4 mg/ml", "baseline": "random background probes", "direction": "higher = stronger binding", "constant ends, left off below": "GCCTAGCAC … GTCTTGATTCGCTTGACGCTGCTG", "Target sequence (chain)": "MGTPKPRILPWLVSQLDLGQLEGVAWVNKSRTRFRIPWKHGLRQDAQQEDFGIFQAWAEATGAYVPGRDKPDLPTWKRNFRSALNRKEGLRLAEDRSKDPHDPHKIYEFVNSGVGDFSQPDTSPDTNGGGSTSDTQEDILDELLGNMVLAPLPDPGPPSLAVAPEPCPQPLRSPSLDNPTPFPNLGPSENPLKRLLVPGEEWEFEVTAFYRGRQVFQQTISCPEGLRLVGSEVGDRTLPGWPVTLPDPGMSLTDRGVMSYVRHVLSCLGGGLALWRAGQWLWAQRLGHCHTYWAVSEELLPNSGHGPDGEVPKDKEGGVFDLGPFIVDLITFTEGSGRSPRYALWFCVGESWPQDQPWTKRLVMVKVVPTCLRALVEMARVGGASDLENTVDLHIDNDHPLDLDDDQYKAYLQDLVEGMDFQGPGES"}
{"Oligonucleotide": "AACCACATAGGAAGAACAACGTGCTAG", "fitted relative affinity [z-score]": 0.221}
{"Oligonucleotide": "TCTAGCCTCCATTTTTACCCGTGCTAG", "fitted relative affinity [z-score]": -0.243}
{"Oligonucleotide": "CGACATTTTTATTTGCCTTAGTGCTAG", "fitted relative affinity [z-score]": 0.72}
{"Oligonucleotide": "TTAGGTATCCTTCTCCTTCAGTGCTAG", "fitted relative affinity [z-score]": 7.2}
{"Oligonucleotide": "GACGGTTTCGGTCTCGGGGCGTGCTAG", "fitted relative affinity [z-score]": 8.46}
{"Oligonucleotide": "GACGGAATCGGGTATCGGGACGTGCTA", "fitted relative affinity [z-score]": 0.252}
{"Oligonucleotide": "TTAGATATCGGGACTGGTTTAGTGCTA", "fitted relative affinity [z-score]": -0.0568}
{"Oligonucleotide": "TTAGTACTGGGGTATCGATTAGTGCTA", "fitted relative affinity [z-score]": -0.389}
{"data": "Block 2", "target": "Sal-like protein 4, full length isoform A (SALL4, Homo sapiens, UniProt Q9UJQ4, residues 1-1053)", "technique": "universal PBM", "molecule type": "double-stranded DNA, one strand shown", "sample": "in vitro", "tested at": "600 nM", "notes": "8-mer, flanks averaged, mean of replicates", "direction": "higher = stronger binding", "sequence of UniProt Q9UJQ4 (whole entry, looked up)": "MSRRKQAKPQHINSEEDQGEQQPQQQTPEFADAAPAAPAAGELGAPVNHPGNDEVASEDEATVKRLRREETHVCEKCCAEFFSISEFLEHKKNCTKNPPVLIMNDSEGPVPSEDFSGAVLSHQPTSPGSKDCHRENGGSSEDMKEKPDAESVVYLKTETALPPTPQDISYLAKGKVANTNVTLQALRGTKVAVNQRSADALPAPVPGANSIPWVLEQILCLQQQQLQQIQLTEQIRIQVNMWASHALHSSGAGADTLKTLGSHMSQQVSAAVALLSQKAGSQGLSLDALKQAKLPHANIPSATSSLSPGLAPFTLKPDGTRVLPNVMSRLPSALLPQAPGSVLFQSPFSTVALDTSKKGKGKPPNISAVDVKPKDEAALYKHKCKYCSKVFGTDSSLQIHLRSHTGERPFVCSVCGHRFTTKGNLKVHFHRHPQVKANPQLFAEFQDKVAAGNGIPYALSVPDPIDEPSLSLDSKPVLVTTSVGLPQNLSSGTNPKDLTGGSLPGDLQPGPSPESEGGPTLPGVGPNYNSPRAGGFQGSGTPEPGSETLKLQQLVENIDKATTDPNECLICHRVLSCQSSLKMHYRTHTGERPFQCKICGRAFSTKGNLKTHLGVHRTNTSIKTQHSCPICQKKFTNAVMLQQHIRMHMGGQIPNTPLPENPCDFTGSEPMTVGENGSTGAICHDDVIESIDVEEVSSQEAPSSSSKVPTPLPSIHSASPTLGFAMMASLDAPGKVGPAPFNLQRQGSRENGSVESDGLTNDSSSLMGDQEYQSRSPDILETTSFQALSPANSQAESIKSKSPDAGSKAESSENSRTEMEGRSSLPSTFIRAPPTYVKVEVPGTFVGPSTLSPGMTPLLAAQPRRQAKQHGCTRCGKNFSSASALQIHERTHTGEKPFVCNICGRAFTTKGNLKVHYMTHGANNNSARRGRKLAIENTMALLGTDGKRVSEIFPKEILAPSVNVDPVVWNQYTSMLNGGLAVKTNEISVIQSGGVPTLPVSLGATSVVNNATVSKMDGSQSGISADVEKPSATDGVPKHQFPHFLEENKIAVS"}
{"Oligonucleotide": "CAGACAGC", "E-score": -0.167}
{"Oligonucleotide": "ACAAGCAT", "E-score": 0.0946}
{"Oligonucleotide": "ATCCAACG", "E-score": -0.0729}
{"Oligonucleotide": "ATTGTACC", "E-score": 0.11}
{"Oligonucleotide": "CTTTAGGC", "E-score": -0.133}
{"Oligonucleotide": "AGACTACA", "E-score": -0.0229}
{"Oligonucleotide": "GCCTCGGA", "E-score": -0.295}
{"Oligonucleotide": "AGTCGGGA", "E-score": -0.189}
{"data": "Block 3", "cell line": "HEK-293T/ACE2", "tested at": "concentration not given", "time": "16 (unit not given)", "baseline": "vehicle"}
{"Compound": "O=C(c1ccc(F)c(F)c1Nc1ccc(I)cc1F)N1CC(O)([C@@H]2CCCCN2)C1", "viability": "94.1%"}
{"Compound": "CC1(C)O[C@@H]2C[C@H]3[C@@H]4C[C@H](F)C5=CC(=O)C=C[C@]5(C)[C@@]4(F)[C@@H](O)C[C@]3(C)[C@]2(C(=O)CO)O1", "viability": "103%"}
{"Compound": "CC1=C(CC(=O)O)c2cc(F)ccc2/C1=C\\c1ccc([S+](C)[O-])cc1 (centres unmarked)", "viability": "101%"}
{"Compound": "Nc1nc2c(c(=O)[nH]1)N(C=O)C(CNc1ccc(C(=O)N[C@@H](CCC(=O)O)C(=O)O)cc1)CN2 (some centres unmarked)", "viability": "107%"}
{"data": "Block 4", "target": "Transcription factor Sp1 (SP1, Homo sapiens, UniProt P08047, residues 1-785, full length assumed)", "technique": "protein-binding microarray", "molecule type": "double-stranded DNA, one strand shown", "sample": "in vitro", "tested at": "not given", "notes": "k-mer, scored over probes, only values ≥0.25", "direction": "higher = stronger binding", "sequence of UniProt P08047 (whole entry, looked up)": "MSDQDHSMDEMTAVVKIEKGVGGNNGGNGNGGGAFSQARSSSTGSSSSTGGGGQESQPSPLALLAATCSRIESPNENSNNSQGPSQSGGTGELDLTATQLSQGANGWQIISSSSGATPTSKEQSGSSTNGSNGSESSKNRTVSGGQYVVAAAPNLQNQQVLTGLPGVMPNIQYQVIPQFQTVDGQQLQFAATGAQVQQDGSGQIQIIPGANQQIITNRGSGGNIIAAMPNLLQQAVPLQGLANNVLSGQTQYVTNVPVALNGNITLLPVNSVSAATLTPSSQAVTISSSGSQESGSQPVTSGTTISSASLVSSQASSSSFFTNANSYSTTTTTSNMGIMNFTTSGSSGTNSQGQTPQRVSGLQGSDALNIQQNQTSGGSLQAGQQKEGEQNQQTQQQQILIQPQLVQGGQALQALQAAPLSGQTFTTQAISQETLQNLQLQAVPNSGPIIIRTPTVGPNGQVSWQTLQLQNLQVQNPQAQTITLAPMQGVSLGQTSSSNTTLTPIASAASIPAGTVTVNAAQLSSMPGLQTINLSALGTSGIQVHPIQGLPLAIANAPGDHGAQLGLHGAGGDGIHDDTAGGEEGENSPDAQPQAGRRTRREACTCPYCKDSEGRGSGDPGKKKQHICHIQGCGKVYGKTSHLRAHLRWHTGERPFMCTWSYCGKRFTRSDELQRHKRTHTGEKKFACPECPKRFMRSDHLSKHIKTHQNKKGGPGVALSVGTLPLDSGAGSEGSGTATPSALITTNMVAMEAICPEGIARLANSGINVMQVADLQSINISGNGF"}
{"Oligonucleotide": "GGGCGTAA", "E-score": 0.344}
{"Oligonucleotide": "ATACATAT", "E-score": 0.284}
{"Oligonucleotide": "CGCCCCAC", "E-score": 0.458}
{"data": "Block 5", "target": "Replicase polyprotein 1ab, nsp13 helicase (rep, Severe acute respiratory syndrome coronavirus 2, UniProt P0DTD1)", "action": "inhibitor", "tested at": "20 µM"}
{"SMILES": "Cc1cc(Cl)ccc1OCCCC(=O)NO", "inhibition": "-2.54%"}
{"SMILES": "CC1=C(C(=O)OC2CCCCC2)C(c2ccc([N+](=O)[O-])cc2)C2=C(CC(C)(C)CC2=O)N1 (centres unmarked)", "inhibition": "3.99%"}
{"SMILES": "COc1cccc([C@@H](C)NCCCc2ccccc2Cl)c1", "inhibition": "3.33%"}
{"SMILES": "O=C(NCNC(=O)NC1C(=O)NC(=O)N1CO)NC1C(=O)NC(=O)N1CO (centres unmarked)", "inhibition": "7.24%"}
{"SMILES": "N[C@@H](CCC(=O)N[C@@H](CS)C(=O)NCC(=O)O)C(=O)O", "inhibition": "4.66%"}
{"SMILES": "CN(C)CCCO[C@@H]1[C@H]2OC(C)(C)O[C@H]2O[C@@H]1[C@H](O)CO", "inhibition": "-1.57%"}
{"SMILES": "O=C(O[C@H]1[C@H](OC(=O)c2cccnc2)[C@@H](OC(=O)c2cccnc2)[C@H](OC(=O)c2cccnc2)[C@@H](OC(=O)c2cccnc2)[C@H]1OC(=O)c1cccnc1)c1cccnc1", "inhibition": "-2.18%"}
{"SMILES": "O=C(O)[C@H]1O[C@H](O)[C@H](O)[C@@H](O)[C@@H]1O", "inhibition": "0.03%"}
{"SMILES": "O=C(OC[C@H]1O[C@@H](OC(=O)c2cc(O)c(O)c(OC(=O)c3cc(O)c(O)c(O)c3)c2)[C@H](OC(=O)c2cc(O)c(O)c(OC(=O)c3cc(O)c(O)c(O)c3)c2)[C@@H](OC(=O)c2cc(O)c(O)c(OC(=O)c3cc(O)c(O)c(O)c3)c2)[C@@H]1OC(=O)c1cc(O)c(O)c(OC(=O)c2cc(O)c(O)c(O)c2)c1)c1cc(O)c(O)c(OC(=O)c2cc(O)c(O)c(O)c2)c1", "inhibition": "98%"}
{"SMILES": "O=c1c2ccccc2oc2ccccc12", "inhibition": "3%"}
{"SMILES": "C[C@]12CC[C@@H]3c4ccc(O)cc4CC[C@H]3[C@@H]1CC[C@@H]2OC(=O)CCC1CCCC1", "inhibition": "0%"}
{"SMILES": "COc1ccc(-c2cc(=O)c3c(O)c(OC)c(O)cc3o2)cc1OC", "inhibition": "-0.84%"}
{"SMILES": "Clc1ccc(C(c2ccccc2Cl)C(Cl)Cl)cc1 (centres unmarked)", "inhibition": "4.33%"}
{"SMILES": "Nc1nccc(-c2c(-c3ccc(F)cc3)ncn2C2CCCCC2)n1", "inhibition": "8.25%"}
{"SMILES": "COc1cc2c(cc1OC)CN(C(=O)/C=C/c1c(-c3ccccc3)n(C)c3ncccc13)CC2", "inhibition": "6.45%"}
{"SMILES": "CCCCCCCCCCCCCCCCCCCCCC(=O)O", "inhibition": "-9.34%"}
{"SMILES": "CCN(CC)CCOC(=O)C(c1ccccc1)c1ccccc1", "inhibition": "5.43%"}
{"SMILES": "C/C=C1\\[C@H]2C=C(C)C[C@]1(N)c1ccc(=O)[nH]c1C2", "inhibition": "4.16%"}
{"SMILES": "CCOc1ccc(Cc2cc([C@@H]3O[C@H](CO)[C@@H](O)[C@H](O)[C@H]3O)ccc2Cl)cc1", "inhibition": "3.47%"}
{"SMILES": "O=C(N[C@@H]1CC[C@@H](c2cccc(F)c2F)CN(CC(F)(F)F)C1=O)N1CCC(n2c(=O)[nH]c3ncccc32)CC1", "inhibition": "5.18%"}
{"SMILES": "O=C1/C(=C/c2ccccc2)C(NC2CCCCC2)c2ccccc21 (centres unmarked)", "inhibition": "17.7%"}
{"SMILES": "C=CCNc1ncnc2ccc(Br)cc12", "inhibition": "-2.34%"}
{"SMILES": "COc1cc2c(Nc3ccc(Cl)c(Cl)c3F)ncnc2cc1OC[C@@H]1C[C@@H]2CN(C)C[C@@H]2C1", "inhibition": "10.3%"}
{"SMILES": "C[C@H](N)C(=O)N[C@@]1(C(=O)O)C[C@@H](Sc2nnc[nH]2)[C@H]2[C@H](C(=O)O)[C@H]21", "inhibition": "6.48%"}
{"SMILES": "COc1cc(/C=C/C(=O)CC(=O)/C=C/c2ccc(O)c(OC)c2)ccc1O", "inhibition": "0.71%"}
{"data": "Other studies, line by line", "target": "Replicase polyprotein 1ab, main protease (rep, Severe acute respiratory syndrome coronavirus 2, UniProt P0DTD1)", "observed": "enzyme activity", "action": "inhibitor", "tested at": "20 µM"}
{"Compound": "CC(C)Nc1cccnc1N1CCN(C(=O)c2cc3cc(NS(C)(=O)=O)ccc3[nH]2)CC1", "conditions": "with DTT", "inhibition [%]": 67.5}
{"Compound": "O=c1[nH]c(CCl)nc2sc3c(c12)CCCC3", "conditions": "hit confirmation", "inhibition [%]": 28.7}
{"note": "For quick reference, copied from above (block 2):"}
{"Oligonucleotide": "ATTGTACC", "E-score": 0.11}
{"Oligonucleotide": "AGTCGGGA", "E-score": -0.189}
{"Oligonucleotide": "GCCTCGGA", "E-score": -0.295}
{"Oligonucleotide": "AGACTACA", "E-score": -0.0229}
{"Oligonucleotide": "ATCCAACG", "E-score": -0.0729}
{"Oligonucleotide": "CTTTAGGC", "E-score": -0.133}
